Experimental data from different studies.
Each numbered part is a random draw from the data of one study; scales do not carry over between parts. Positions count from the first letter of the parent shown.

Set 1
Target: CCNB1, cyclin fold, Cln2 fusion (human)
Technique: yeast growth competition, sequencing
Sample: yeast
Notes: weak parent motif
Reference: not given
Reading: higher = stronger binding
Starting sequence: ORC1 docking peptide (human); PRARKRLELGNLG
Variant	normalised enrichment score
PRARKRLELQNLG [G10Q]	0.31
PRARKRLEEGNLG [L9E]	0.163
PRARKRLFLGNLG [E8F]	0.758
PRARKRLEFGNLG [L9F]	0.956
PRARKKLELGNLG [R6K]	0.226
PRARKCLELGNLG [R6C]	0.916
PRARKRHELGNLG [L7H]	1.21
PRARKILELGNLG [R6I]	0.829
PRARKRYELGNLG [L7Y]	1.1
PTARKRLELGNLG [R2T]	1.39
PRARKRDELGNLG [L7D]	0.434
PRAHKRLELGNLG [R4H]	0.968
PRARKRLELGHLG [N11H]	0.775
PRARKMLELGNLG [R6M]	0.812
PRARKRLELGGLG [N11G]	1.14
PRARKGLELGNLG [R6G]	1.47
PRARKRLELNNLG [G10N]	0.4
PRARKRLELGNLH [G13H]	0.852
FRARKRLELGNLG [P1F]	0.481
PRANKRLELGNLG [R4N]	0.641
PRARKRLERGNLG [L9R]	1.1
PRKRKRLELGNLG [A3K]	0.258
PRARKRLELGNLA [G13A]	0.623
PRARKQLELGNLG [R6Q]	0.488
IRARKRLELGNLG [P1I]	0.705

Set 2
Target: Sal-like protein 4, full length isoform A (SALL4, Homo sapiens, UniProt Q9UJQ4, residues 1-1053)
Chain of UniProt Q9UJQ4 (whole entry, looked up): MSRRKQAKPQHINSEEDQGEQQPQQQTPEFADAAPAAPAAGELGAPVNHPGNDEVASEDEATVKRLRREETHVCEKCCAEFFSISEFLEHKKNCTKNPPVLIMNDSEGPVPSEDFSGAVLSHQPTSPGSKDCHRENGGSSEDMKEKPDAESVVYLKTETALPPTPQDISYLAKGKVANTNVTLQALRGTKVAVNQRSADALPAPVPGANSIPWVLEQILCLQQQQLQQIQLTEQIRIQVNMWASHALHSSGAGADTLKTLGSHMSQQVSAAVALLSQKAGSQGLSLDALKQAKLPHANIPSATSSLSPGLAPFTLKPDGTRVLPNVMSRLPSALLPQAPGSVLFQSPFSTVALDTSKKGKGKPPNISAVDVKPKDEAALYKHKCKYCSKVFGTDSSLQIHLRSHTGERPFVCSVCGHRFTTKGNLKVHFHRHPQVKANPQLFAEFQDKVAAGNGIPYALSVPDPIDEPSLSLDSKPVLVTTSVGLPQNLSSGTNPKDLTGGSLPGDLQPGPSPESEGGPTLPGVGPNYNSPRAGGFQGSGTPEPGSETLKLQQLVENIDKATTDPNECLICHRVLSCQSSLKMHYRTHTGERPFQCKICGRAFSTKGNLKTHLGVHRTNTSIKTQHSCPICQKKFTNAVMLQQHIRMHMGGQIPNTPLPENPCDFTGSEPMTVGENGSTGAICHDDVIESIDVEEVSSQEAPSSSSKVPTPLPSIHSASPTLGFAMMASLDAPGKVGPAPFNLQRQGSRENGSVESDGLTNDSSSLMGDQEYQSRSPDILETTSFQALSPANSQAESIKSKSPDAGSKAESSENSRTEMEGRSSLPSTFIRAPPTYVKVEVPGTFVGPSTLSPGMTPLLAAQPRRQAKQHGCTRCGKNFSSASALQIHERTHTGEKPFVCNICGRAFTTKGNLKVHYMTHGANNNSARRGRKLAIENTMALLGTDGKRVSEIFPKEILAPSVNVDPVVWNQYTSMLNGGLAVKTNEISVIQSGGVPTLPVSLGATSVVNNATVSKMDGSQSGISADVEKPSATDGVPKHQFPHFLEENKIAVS
Technique: universal PBM
Molecule type: double-stranded DNA, one strand shown
Sample: in vitro
Tested at: 600 nM
Notes: 8-mer, flanks averaged, mean of replicates
Reading: higher = stronger binding
Oligonucleotide	E-score
CGCACACC	-0.173
AATTAAGA	0.282
ATAACAGC	0.183
GGCGGTCA	-0.317
GCACCACC	-0.317
GGGTAGAC	-0.291
CGACCCAG	-0.332
CTGAACCC	-0.316
ATTGGGTA	-0.00194
ATCCTCTC	-0.1
AAGCCTCT	-0.123
TCTCGCAA	0.0244
GTATTCGA	-0.0464
GTTCATTA	0.163
CGAGCGAG	-0.0885
CTGCTATC	-0.0352
AATAGCGA	0.143
AGTTGTTA	0.138
AGCGTATA	0.16

Set 3
Target: UBE2L6 UBC core domain (UniProt O14933)
Technique: yeast two-hybrid
Sample: yeast
Notes: mostly zero background
Reference: not given
Reading: higher = stronger interaction
B1: RNF166 RING domain (UniProt Q96A37); chain GDSGLEAQYTCPICLEVYHRPVAIGSCGHTFCGECLQPCLQVPSPLCPLCRLPFDPKKVDK
B2: RNF183 RING domain (UniProt Q96D59); chain EQQGRELEAECPVCWNPFNNTFHTPKMLDCCHSFCVECLAHLSLVTPARRRLLCPLCRQPTVLASGQP
B3: MYCBP2 RING domain (UniProt O75592); chain TSLKQDADDMCMICFTEALSAAPAIQLDCSHIFHLQCCRRVLENRWLGPRITFGFISCPICKNKINHIVLKD
B4: TRIM37 RING domain (UniProt O94972); chain SVESIAEVFRCFICMEKLRDARLCPHCSKLCCFSCIRRWLTEQRAQCPHCRAPLQLRELVN
B5: TRIM60 RING domain (UniProt Q495X7); chain ALVNLQEESSCPICLEYLKDPVTINCGHNFCRSCLSVSWKDLDDTFPCPVCRFCFPYKSFRR
B6: RNF187 RING domain (UniProt Q5TA31); chain ALPAGPAEAACALCQRAPREPVRADCGHRFCRACVVRFWAEEDGPFPCPECADDCWQRAVEP
B7: ANAPC11 RING domain (UniProt Q9NYG5); chain GICRMAFNGCCPDCKVPGDDCPLVWGQCSHCFHMHCILKWLHAQQVQQHCPMCRQEWKFKE
B8: RNF122 RING domain (UniProt Q9H9V4); chain AKKLQLYGQTCAVCLEDFKGKDELGVLPCQHAFHRKCLVKWLEVRCVCPMCNKPIASPSEAT
B9: MEX3B RING domain (UniProt Q6ZN04); chain SGLRRKGSRDCSVCFESEVIAALVPCGHNLFCMECANRICEKSEPECPVCHTAVTQAIRIF
Residues (chain): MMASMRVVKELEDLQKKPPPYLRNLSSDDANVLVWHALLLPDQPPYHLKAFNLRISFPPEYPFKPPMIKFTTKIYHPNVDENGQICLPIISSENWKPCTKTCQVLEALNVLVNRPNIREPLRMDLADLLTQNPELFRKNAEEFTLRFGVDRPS
Molecule	lacZ reporter activity
QVQSRTKIEECVVCSDKKAAVLFQPCGHMCACENCANLMKKCVQCRAVVERRVPFI (MIB1 RING domain (UniProt Q86YT6))	0
LDAASGHPLVCPLCHGQYERPCLLDCFHDFCTGCLRGRATDGRLSCPLCQHQTLVKGPSG (Rnf207 RING domain (UniProt Q3V3A7))	0
B1 (RNF166 RING domain)	0
B2 (RNF183 RING domain)	0
B3 (MYCBP2 RING domain)	0
B4 (TRIM37 RING domain)	0
MNDVLENELQCIICSEYFIEAVTLNCAHSFCSYCINEWMKRKIECPICRKDIKSKTYSL (RNF8 RING domain (UniProt O76064))	0
B5 (TRIM60 RING domain)	0
B6 (RNF187 RING domain)	0
B7 (ANAPC11 RING domain)	0
FVKTVEDKYKCEKCHLVLCSPKQTECGHRFCESCMAALLSSSSPKCTACQESIVKDKVF (TRAF3 RING domain (UniProt Q13114))	0
B8 (RNF122 RING domain)	2440
B9 (MEX3B RING domain)	0

Set 4
Target: CREBZF, bZIP domain (human)
Technique: DHFR protein complementation
Sample: yeast
Notes: single substitutions, most at no-binding floor
Reference: wild-type JUN-FOS pair
Reading: higher = stronger binding
Starting sequence: JUN, bZIP domain (human); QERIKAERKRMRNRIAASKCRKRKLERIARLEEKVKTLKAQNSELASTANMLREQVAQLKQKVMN; partner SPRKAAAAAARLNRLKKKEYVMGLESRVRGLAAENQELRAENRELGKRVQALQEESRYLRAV
Variant	binding fitness [natural log]
E33R	-1.5
E44T	-1.36
N42C	-1.42
L31M	-1.41
A46Q	-1.31
R30A	-1.36
I28F	-1.54
S47D	-1.4
L38V	-1.51
T37K	-1.48
E32A	-1.4
L45W	-1.42
S43E	-1.44
E33C	-1.59
E54A	-1.44
L45C	-1.49
R30L	-1.53
K36T	-1.59

Some of these lines once more (set 4):
Variant	binding fitness [natural log]
L45W	-1.42
L31M	-1.41
T37K	-1.48
E33C	-1.59
